Measurements pooled from the literature.
Each numbered part is a random draw from the data of one study; scales do not carry over between parts.

Study 1
Target: Interferon regulatory factor 3, full length, phosphomimetic (IRF3, Homo sapiens, UniProt Q14653, residues 1-427, S386D/S396D/S398D/S402D/T404D/S405D)
Technique: protein-binding microarray
Form: double-stranded DNA, one strand shown
Sample: in vitro
Concentration: 2540 nM top
Notes: 60-bp whole probe
With: salmon DNA 0.4 mg/ml
Relative to: random background probes
Reading: higher = stronger binding
All sequences stand within: GCCTAGCAC … GTCTTGATTCGCTTGACGCTGCTG
Construct (chain): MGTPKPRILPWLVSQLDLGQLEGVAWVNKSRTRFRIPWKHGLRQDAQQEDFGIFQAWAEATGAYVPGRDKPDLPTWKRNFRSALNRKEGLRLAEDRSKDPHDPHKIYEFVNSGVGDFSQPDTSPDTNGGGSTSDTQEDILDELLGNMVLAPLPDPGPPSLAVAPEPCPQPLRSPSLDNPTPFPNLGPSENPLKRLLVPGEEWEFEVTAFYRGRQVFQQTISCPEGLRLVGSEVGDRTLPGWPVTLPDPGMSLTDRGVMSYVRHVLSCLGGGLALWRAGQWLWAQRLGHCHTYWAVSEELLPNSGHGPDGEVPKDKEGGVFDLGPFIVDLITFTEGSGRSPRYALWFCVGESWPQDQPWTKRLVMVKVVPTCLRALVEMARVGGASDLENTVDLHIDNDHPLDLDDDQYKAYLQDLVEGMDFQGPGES
`TTAGCTTCCGGTTTCGGTTAGTGCTAG` — result for “fitted relative affinity”: 6 z-score.
`GCCGGACTGCTTTTCCTGACGTGCTAG` — result for “fitted relative affinity”: 0.339 z-score.
For `TTAGATATCAGACTGGATTTGTGCTAG`, “fitted relative affinity” read 0.029 z-score.
For `GTAGTAATCTTAAGGCTGTCGTGCTAG`, “fitted relative affinity” read -0.0842 z-score.
`TCATATTTGCAACATCCCACTGTGCTA` — result for “fitted relative affinity”: 0.791 z-score.
`TTAGGAATGGGGTATCGGTTAGTGCTA`: “fitted relative affinity” 0.153 z-score.

Study 2
Target: Histone acetyltransferase KAT6A, both winged helices, GST fusion (KAT6A, Homo sapiens, UniProt Q92794, residues 1-181)
Technique: protein binding microarray
Form: double-stranded DNA, one strand shown
Sample: in vitro
Concentration: not given
Notes: 8-mer, flanks averaged, mean of 2 arrays, mostly near background
Relative to: not given
Reading: higher = stronger binding
Target sequence (chain): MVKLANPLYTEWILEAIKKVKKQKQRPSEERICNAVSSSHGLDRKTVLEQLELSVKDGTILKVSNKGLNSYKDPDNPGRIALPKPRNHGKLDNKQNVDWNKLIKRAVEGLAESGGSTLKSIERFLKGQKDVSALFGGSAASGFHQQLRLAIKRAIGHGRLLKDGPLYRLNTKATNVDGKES
The E-score of `CACCAGAA` is reported as -0.17.
For `AGGTCTAC`, the E-score was -0.0826.
For `AAGTCTCA`, the E-score was -0.221.
The E-score of `GCGTCTAA` is reported as 0.161.

Study 3
Target: Sal-like protein 4, full length isoform B (SALL4, Homo sapiens, UniProt Q9UJQ4-2, residues 1-616)
Technique: universal PBM
Form: double-stranded DNA, one strand shown
Sample: in vitro
Concentration: not given
Notes: 8-mer, flanks averaged, mean of replicates
Reading: higher = stronger binding
Residues (chain): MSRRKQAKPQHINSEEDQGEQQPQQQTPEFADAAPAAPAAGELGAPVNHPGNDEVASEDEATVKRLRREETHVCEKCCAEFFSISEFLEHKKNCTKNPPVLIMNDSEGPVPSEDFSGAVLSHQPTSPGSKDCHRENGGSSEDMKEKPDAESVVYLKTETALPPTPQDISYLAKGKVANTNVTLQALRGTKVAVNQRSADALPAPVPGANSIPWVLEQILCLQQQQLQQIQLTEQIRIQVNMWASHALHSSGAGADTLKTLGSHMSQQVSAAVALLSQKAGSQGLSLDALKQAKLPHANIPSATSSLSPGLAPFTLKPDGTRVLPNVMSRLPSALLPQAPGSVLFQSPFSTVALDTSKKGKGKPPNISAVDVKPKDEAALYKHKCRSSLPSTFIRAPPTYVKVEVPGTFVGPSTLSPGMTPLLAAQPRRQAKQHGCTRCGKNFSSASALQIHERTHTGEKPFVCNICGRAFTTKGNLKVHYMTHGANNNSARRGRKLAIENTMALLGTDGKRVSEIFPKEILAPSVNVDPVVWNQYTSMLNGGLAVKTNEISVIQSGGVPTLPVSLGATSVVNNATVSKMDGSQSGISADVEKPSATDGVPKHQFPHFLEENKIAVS
`CGAGGCCC` gave an E-score of -0.301.
For `CATCGAGA`, the E-score was -0.0319.
`CTCGGATC` gave an E-score of -0.171.
With `ATTCTCGC` the E-score was -0.104.

Further values, each from its own experiment
For `PhoQ, residues 284 288 289 292 302 303 ALAMYF`, the fold induction was 2.44 (PhoP, residues 12 14 15 18 19 TQCLL (Escherichia coli, UniProt P23836); Sort-seq, item: YFP reporter; E. coli; PhoQ-PhoP variant library, with: 10 µM Mg2+; relative to: high Mg2+ state, higher = stronger signaling).

Repeated from above (further values, each from its own experiment):
For `PhoQ, residues 284 288 289 292 302 303 ALAMYF`, the fold induction was 2.44 (PhoP, residues 12 14 15 18 19 TQCLL (Escherichia coli, UniProt P23836); Sort-seq, item: YFP reporter; E. coli; PhoQ-PhoP variant library, with: 10 µM Mg2+; relative to: high Mg2+ state, higher = stronger signaling).
